Assay results pooled from the literature.
A part holds a random share of what one study measured. Changes are numbered by the printed parent chain.

Study 1 — target: CCNB2, cyclin fold, Cln2 fusion (human); technique: yeast growth competition, sequencing; matrix: yeast; setting: weak parent motif; relative to: not given; reading: higher = stronger binding
Parent: SLBP docking peptide (human); ARYKRKLLINDFG; partner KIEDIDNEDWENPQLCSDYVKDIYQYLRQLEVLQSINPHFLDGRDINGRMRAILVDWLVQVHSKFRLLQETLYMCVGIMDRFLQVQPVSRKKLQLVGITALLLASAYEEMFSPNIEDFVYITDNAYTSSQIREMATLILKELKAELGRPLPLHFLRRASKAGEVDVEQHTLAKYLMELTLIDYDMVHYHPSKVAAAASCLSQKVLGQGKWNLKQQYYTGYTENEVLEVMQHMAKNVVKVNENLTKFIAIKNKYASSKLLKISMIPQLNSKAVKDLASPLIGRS
Change | normalised enrichment score
F12E | 0.617
L8R | 0.376
R5G | 0.307
L8E | 0.589

Study 2 — technique: RNA Bind-n-Seq; form: RNA; matrix: in vitro; tested at: 365 nM; relative to: no-protein control; reading: higher = stronger binding
Target: RNA binding protein fox-1 homolog 2, RRM domain, GST-SBP tag (RBFOX2, Homo sapiens, UniProt O43251-10, residues 100-194)
Setting: natural RNA segment, single round, ends assumed
Strand | RBNS enrichment (R)
GGGAGUUCUACAGUCCGACGAUCCCUCUUCCCGUCACAAUCAACUUUGGAUUCUGUAUUUUUUUAUAAUAAAAUGAGCAUAAACCUCAAACGCGUGUGUCUGUAUGUGGGGGCCUUGCCCUACUUGAAGGAGAUGGAAUUCUCGGGUGCCAA | 0.542
GGGAGUUCUACAGUCCGACGAUCUGGCAUGUUAGUGAGGAGUUCUGAUAUUAAGCACACACACACAUGCACACAAAUGGACUUCUCUGAAGCUGUGUUUAGUGAAAUGAGCUCAAGUACAUGAAUGUUAGUUGUGGAAUUCUCGGGUGCCAA | 3.14
GGGAGUUCUACAGUCCGACGAUCGUGCAAGUGUGCACACGUUUGUGGAGAGGAGGGUGUUCUGGCCUGAGAAGGUAAAGAAGAGGCAUGUCCAGUAUGCUUUGCAGGGUGUGUUUGCUCUUUUCCAUGCCCAUUGGAAUUCUCGGGUGCCAA | 1.29
GGGAGUUCUACAGUCCGACGAUCAAUCCUAAAUCCCAUUUCAAAAAUAUACUUAUCAUUGGAAUUUAUCUCCCAUUUUAACCACUUUUAGAUACUGCUCCUUAUUUAAGUUACCCUUUUAGCAGAUAAUUCGGUGGAAUUCUCGGGUGCCAA | 0.978

Study 3 — technique: protein binding microarray; form: double-stranded DNA, one strand shown; matrix: in vitro; tested at: not given; relative to: not given; reading: higher = stronger binding
Target: Histone acetyltransferase KAT6A, both winged helices, GST fusion (KAT6A, Homo sapiens, UniProt Q92794, residues 1-181)
Setting: 8-mer, flanks averaged, mean of 2 arrays, mostly near background
Construct (chain): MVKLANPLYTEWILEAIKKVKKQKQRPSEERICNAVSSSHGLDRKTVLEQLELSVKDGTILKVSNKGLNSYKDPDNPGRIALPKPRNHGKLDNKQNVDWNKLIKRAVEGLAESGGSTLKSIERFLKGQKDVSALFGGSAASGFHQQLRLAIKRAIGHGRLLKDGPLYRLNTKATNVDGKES
Strand | E-score
CAGCAAAA | -0.0413
ATCCCCAT | -0.0929
ACACGCCT | -0.0237
CATATCTC | -0.125
GCAAACGC | 0.0544
ATGATGTA | -0.0139
ACGTCTGG | -0.18

Study 4 — technique: Sort-seq; item: YFP reporter; matrix: E. coli; setting: PhoQ-PhoP variant library; together with: 10 µM Mg2+; relative to: high Mg2+ state; reading: higher = stronger signaling
Molecule: PhoQ, residues 284 288 289 292 302 303 DDMDFR
target | fold induction
PhoP, residues 12 14 15 18 19 STHWV (Escherichia coli, UniProt P23836) | 3.27
PhoP, residues 12 14 15 18 19 QYCSL (Escherichia coli, UniProt P23836) | 0.814
PhoP, residues 12 14 15 18 19 SHWTV (Escherichia coli, UniProt P23836) | 0.941

For quick reference, copied from above (study 3):
Strand | E-score
CATATCTC | -0.125
GCAAACGC | 0.0544
ATGATGTA | -0.0139
